{"data": "Measured values collected from several papers", "ABCC3": "ATP-binding cassette sub-family C member 3 (ABCC3, Homo sapiens, UniProt O15438)", "KCNH2": "Voltage-gated inwardly rectifying potassium channel KCNH2 (KCNH2, Homo sapiens, UniProt Q12809)", "note": "Each line is one published result; not all experiments were run side by side. “And” joins repeats or separate records; there may be more than shown. Numbers after ± are the reported error.", "chain of UniProt O15438 (whole entry, looked up)": "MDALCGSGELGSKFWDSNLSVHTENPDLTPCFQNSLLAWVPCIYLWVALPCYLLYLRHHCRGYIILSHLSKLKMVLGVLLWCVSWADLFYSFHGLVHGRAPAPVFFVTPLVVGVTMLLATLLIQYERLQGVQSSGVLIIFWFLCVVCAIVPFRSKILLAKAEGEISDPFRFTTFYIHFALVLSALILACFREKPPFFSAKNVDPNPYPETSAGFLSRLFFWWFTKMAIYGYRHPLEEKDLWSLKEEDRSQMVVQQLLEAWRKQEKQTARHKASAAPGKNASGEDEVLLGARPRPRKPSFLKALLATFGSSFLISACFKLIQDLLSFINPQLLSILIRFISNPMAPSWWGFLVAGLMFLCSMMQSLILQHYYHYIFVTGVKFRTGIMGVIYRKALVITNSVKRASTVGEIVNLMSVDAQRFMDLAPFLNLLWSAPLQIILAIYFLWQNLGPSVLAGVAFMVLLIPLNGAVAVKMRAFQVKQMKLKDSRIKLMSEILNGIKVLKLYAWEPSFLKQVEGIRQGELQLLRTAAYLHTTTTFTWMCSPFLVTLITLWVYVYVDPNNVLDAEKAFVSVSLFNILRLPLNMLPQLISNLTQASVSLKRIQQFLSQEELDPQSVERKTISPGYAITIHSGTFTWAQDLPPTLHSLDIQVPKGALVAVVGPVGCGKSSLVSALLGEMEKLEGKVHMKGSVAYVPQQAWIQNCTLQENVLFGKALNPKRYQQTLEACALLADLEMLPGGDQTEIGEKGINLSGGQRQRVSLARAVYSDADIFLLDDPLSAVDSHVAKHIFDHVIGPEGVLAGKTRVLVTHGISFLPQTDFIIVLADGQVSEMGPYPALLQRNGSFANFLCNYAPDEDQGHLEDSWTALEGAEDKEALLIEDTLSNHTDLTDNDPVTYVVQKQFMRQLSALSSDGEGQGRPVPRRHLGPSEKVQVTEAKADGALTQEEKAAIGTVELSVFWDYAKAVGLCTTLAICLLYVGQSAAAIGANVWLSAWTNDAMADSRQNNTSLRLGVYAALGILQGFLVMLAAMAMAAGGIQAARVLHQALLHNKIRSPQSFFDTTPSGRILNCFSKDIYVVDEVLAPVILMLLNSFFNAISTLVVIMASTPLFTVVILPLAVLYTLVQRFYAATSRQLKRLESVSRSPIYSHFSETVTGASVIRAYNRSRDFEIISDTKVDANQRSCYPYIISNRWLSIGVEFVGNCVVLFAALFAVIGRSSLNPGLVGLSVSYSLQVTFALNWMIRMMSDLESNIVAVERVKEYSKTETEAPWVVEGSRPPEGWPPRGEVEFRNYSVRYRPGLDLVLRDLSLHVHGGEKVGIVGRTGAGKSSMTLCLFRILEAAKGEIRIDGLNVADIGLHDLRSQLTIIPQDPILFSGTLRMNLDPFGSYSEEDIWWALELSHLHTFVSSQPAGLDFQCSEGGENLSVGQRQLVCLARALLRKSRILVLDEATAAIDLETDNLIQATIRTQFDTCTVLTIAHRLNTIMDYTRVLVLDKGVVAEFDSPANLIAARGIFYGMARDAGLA", "chain of UniProt P20813 (whole entry, looked up)": "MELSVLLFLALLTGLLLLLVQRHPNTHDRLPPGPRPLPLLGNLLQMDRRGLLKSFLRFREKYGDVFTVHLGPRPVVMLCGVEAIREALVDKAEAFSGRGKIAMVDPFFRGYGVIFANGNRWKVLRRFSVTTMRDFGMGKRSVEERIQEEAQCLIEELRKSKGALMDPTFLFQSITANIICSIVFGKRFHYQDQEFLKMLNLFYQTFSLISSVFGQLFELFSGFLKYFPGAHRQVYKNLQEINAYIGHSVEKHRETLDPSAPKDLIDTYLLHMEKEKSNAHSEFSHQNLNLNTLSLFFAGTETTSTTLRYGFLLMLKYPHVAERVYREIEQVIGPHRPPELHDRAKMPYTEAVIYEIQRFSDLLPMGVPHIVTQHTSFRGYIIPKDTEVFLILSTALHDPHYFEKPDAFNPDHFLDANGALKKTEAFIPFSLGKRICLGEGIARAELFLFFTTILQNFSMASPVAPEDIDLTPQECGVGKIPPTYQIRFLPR", "chain of UniProt Q12809 (whole entry, looked up)": "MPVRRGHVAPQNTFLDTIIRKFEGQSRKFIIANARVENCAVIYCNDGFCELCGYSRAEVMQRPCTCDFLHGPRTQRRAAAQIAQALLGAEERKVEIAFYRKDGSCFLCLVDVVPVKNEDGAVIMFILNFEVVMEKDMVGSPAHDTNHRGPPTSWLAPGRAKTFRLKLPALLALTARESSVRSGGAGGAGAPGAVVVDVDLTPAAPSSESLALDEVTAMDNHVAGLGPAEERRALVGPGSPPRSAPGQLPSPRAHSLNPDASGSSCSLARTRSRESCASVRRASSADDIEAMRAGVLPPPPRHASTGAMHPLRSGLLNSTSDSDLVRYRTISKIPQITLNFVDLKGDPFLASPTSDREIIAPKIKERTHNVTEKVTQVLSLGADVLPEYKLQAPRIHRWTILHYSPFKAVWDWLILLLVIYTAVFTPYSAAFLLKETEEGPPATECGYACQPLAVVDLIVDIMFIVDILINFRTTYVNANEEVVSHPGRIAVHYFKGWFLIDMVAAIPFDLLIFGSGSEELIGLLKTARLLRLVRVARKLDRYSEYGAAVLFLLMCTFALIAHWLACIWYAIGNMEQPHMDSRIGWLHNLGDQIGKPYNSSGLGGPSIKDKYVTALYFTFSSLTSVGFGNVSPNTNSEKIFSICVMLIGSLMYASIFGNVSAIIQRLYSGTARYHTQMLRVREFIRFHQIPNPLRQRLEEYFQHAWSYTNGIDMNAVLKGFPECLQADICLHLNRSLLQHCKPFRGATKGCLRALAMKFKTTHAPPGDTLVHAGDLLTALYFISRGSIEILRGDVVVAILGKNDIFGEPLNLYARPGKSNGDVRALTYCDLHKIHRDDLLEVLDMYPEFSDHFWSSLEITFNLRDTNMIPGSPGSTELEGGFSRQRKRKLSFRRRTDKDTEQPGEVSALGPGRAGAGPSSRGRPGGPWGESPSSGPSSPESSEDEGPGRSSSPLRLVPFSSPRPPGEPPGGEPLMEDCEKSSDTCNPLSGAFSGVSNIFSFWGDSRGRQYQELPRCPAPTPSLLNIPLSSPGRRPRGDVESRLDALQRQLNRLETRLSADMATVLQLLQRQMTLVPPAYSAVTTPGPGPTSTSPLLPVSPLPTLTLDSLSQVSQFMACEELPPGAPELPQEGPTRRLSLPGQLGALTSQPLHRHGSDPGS"}
{"SMILES": "O=C(Nc1cnccc1-c1ccc([18F])nc1)c1ccnc(NC(=O)C2CC2)c1", "tested on": "GSK-3β imaging tracer", "system": "FVB/NJ mice, both sexes, brain", "setting": "intravenous, 4 min, early frames, no P-gp inhibitor", "endpoint": "SUV", "value": "0.26 ± 0.12"}
{"SMILES": "CC1(C(=O)OC2OC(C(=O)O)C(O)C(O)C2O)CCC2(C)CCC3(C)C(=CC(=O)C4C5(C)CCC(O)C(C)(C)C5CCC43C)C2C1 (stereo not shown)", "tested on": "ABCC3", "test": "substrate, vesicular transport, refers to: MRP3", "system": "inside-out membrane vesicles", "setting": "100 µM, 1 h", "scale": "relative to: with over without vanadate", "endpoint": "net transport ratio", "value": "3.7 ± 0.1"}
{"SMILES": "Cc1cc(/C=C/C#N)cc(C)c1Oc1nc(NC2CCN(Cc3ccc(S(C)(=O)=O)cc3)CC2)nc2ncccc12", "tested on": "KCNH2", "test": "hERG current, manual patch clamp", "system": "CHO stably expressing hERG", "setting": "30 µM", "endpoint": "inhibition", "value": "94.2%"}
{"SMILES": "O=C(O)CN1CCN(CC(=O)O)CCN(Cc2cccc(P(=O)(O)O)n2)CC1", "tested on": "Y3+", "test": "UV-vis spectrophotometric titration", "setting": "[M(L)(OH)]2- complex", "endpoint": "log K1-11 stability constant", "value": 11.2}
{"SMILES": "O=C1C2CC3CC1CC(C(=O)N1CCN(c4ccc([N+](=O)[O-])c5ncccc45)CC1)(C3)C2", "tested on": "Salmonella typhimurium", "test": "Ames test", "system": "TA97a", "setting": "0.13 µg/well, without S9", "scale": "relative to: vehicle", "endpoint": "revertant fold increase", "value": 1}
{"SMILES": "COC1CN([C@H]2CC[C@H]([C@@]3(C)Oc4c(Cl)cc(C(=O)NCc5c(SC)cc(C)[nH]c5=O)c(C)c4O3)CC2)C1", "test": "RNA-seq, refers to: AGPAT4 mouse homolog", "system": "mouse, HT-1376 xenograft, whole blood", "setting": "dose not given", "scale": "relative to: vehicle", "endpoint": "log2 fold change", "value": 0.606}
{"SMILES": "Clc1cc2nc(c1)CNCc1cc(Cl)cc(n1)CNC2.[Cu+2]", "tested on": "Cu(II)/Cu(I) redox couple", "test": "cyclic voltammetry", "system": "DMF", "setting": "together with: TBAP", "scale": "relative to: Fc/Fc+", "endpoint": "anodic peak potential", "value": "-601 mV"}
{"SMILES": "O=C(c1ccc(OCCN2CCCCC2)cc1)c1c(-c2ccc(O)cc2)sc2cc(O[C@@H]3O[C@H](C(=O)O)[C@@H](O)[C@H](O)[C@H]3O)ccc12", "tested on": "ABCC3", "test": "transporter uptake, inhibitor", "system": "Sf9", "setting": "10 µM, pH 7, cell membranes", "endpoint": "inhibition", "value": "> 75%"}
{"SMILES": "O=C(Nc1cnccc1-c1ccc([18F])cc1)c1ccnc(NC(=O)C2CC2)c1", "tested on": "GSK-3β imaging tracer", "system": "FVB/NJ mice, both sexes, brain", "setting": "intravenous, 3 min, early frames, no P-gp inhibitor", "endpoint": "SUV", "value": "0.77 ± 0.19"}
{"SMILES": "FC(F)(F)c1cc2nc(c1)CNCc1cc(C(F)(F)F)cc(n1)CNC2.[Cu+2]", "tested on": "Cu(II)/Cu(I) redox couple", "test": "cyclic voltammetry", "system": "DMF", "setting": "0.1 M TBAP, 100 mV/s scan", "endpoint": "peak potential separation", "value": "283 mV"}
{"SMILES": "CNS(=O)(=O)Nc1nccc(Cc2c(C)c3ccc(Oc4ncccc4F)cc3oc2=O)c1F", "tested on": "WM-115", "test": "cell viability", "setting": "7 days", "endpoint": "IC50", "value": "2.4 nM"}
{"SMILES": "CNC(=O)C1CCCN(C(=O)C2CC3CCC2N3C(=O)[C@@H]2C[C@@H](O)CN2C(=O)NCc2cccc(Cl)c2F)C1 (mixture of isomers)", "tested on": "Cytochrome P450 2B6 (CYP2B6, Homo sapiens, UniProt P20813)", "test": "preincubation with NADPH", "system": "human", "setting": "16.7 µM", "scale": "relative to: negative control", "endpoint": "remaining activity", "value": "94.4% and 99% and 102%"}
{"SMILES": "C=C(NC(=O)c1csc(-c2nc3c(cc2O)-c2nc(cs2)C(=O)NC(C(C)O)C(=O)NC(=C(C)OC)c2nc(cs2)C(=O)NC2c4nc(cs4)C(=O)NC(COC(=O)c4c5c6c(cccc6n4O)COC(=O)C(OC4CC(C)(O)C(N(C)C)C(C)O4)C2OC5)c2nc-3cs2)n1)C(N)=O (stereo not shown)", "system": "cynomolgus monkey, female, plasma", "setting": "intravenous infusion, 3 mg/kg, multiple doses, day 7", "endpoint": "clearance", "value": "2.01 mL/min/kg"}
{"SMILES": "CC(C)OCCOCc1ccc(OCC(O)CN(N=O)C(C)C)cc1 (stereo not shown)", "tested on": "Salmonella typhimurium", "test": "Ames test", "system": "TA100", "setting": "1580 µg/plate, without metabolic activation", "scale": "relative to: solvent control", "endpoint": "revertant fold increase", "value": "1 fold"}
{"SMILES": "O=C(O)CN1CCN(Cc2cccc(C(=O)O)n2)CCN(CP(=O)(O)O)CC1", "tested on": "Y3+", "test": "UV-vis spectrophotometric titration", "setting": "[M(L)(OH)]2- complex", "endpoint": "log K1-11 stability constant", "value": 11.3}
{"SMILES": "C=CC(=O)Nc1cccc(Cn2ncc3cnc(Nc4cnn(CCOC)c4)nc32)c1", "tested on": "YANK2 human", "test": "binding, KINOMEscan", "setting": "100 nM", "scale": "lower = stronger binding", "endpoint": "percent of control", "value": "100%"}
{"SMILES": "[Cu+2].c1cc2nc(c1)CNCc1cccc(n1)CNC2", "tested on": "Cu(II)/Cu(I) redox couple", "test": "cyclic voltammetry", "system": "DMF", "setting": "together with: TBAP", "scale": "relative to: Fc/Fc+", "endpoint": "half-wave potential", "value": "-740 mV"}
{"SMILES": "Nc1ncc(-c2cc(-c3cnn(CC(F)(F)F)c3)ncc2F)nc1C(=O)NC1CNCC(F)C1 (stereo not shown)", "tested on": "TNNI3K", "test": "KINOMEscan", "setting": "1 µM", "scale": "relative to: DMSO control", "endpoint": "remaining binding", "value": "92%"}
{"SMILES": "Ic1cc2nc(c1)CNCc1cc(I)cc(n1)CNC2.[Cu+2]", "tested on": "Cu(II)/Cu(I) redox couple", "test": "cyclic voltammetry", "system": "DMF", "setting": "0.1 M TBAP, 100 mV/s scan", "endpoint": "peak potential separation", "value": "101 mV"}
{"SMILES": "O=C(c1ccc(OCCN2CCCCC2)cc1)c1c(-c2ccc(O[C@@H]3O[C@H](C(=O)O)[C@@H](O)[C@H](O)[C@H]3O)cc2)sc2cc(O)ccc12", "tested on": "ABCC3", "system": "intestine and liver", "setting": "in vivo extrapolation", "endpoint": "efflux clearance share", "value": "~90%"}
{"SMILES": "COc1cc2nc(c1)CNCc1cc(OC)cc(n1)CNC2.[Cu+2]", "tested on": "Cu(II)/Cu(I) redox couple", "test": "cyclic voltammetry", "system": "DMF", "setting": "together with: TBAP", "scale": "relative to: Fc/Fc+", "endpoint": "half-wave potential", "value": "-803 mV"}
{"SMILES": "O=C1NC2(CC2)COc2ncc(F)cc2[C@H]2COCCN2c2ccn3ncc1c3n2", "tested on": "KCNH2", "test": "potassium current, whole-cell patch clamp", "system": "CHO cells expressing hERG", "setting": "4.44 µM", "endpoint": "inhibition", "value": "18.8 ± 1.25%"}
{"note": "Repeated from above:"}
{"SMILES": "Clc1cc2nc(c1)CNCc1cc(Cl)cc(n1)CNC2.[Cu+2]", "tested on": "Cu(II)/Cu(I) redox couple", "test": "cyclic voltammetry", "system": "DMF", "setting": "together with: TBAP", "scale": "relative to: Fc/Fc+", "endpoint": "anodic peak potential", "value": "-601 mV"}
{"SMILES": "COc1cc2nc(c1)CNCc1cc(OC)cc(n1)CNC2.[Cu+2]", "tested on": "Cu(II)/Cu(I) redox couple", "test": "cyclic voltammetry", "system": "DMF", "setting": "together with: TBAP", "scale": "relative to: Fc/Fc+", "endpoint": "half-wave potential", "value": "-803 mV"}
